Results gathered from unrelated publications.
± marks the error that the study gave.

SMILES	system	setting	tissue uptake [%ID/g]
CCCC[C@H](NC(=O)CNC(=O)CNC(=O)CN1CCN(CC(=O)O)CCN(CC(=O)O)CCN(CC(=O)O)CC1)C(=O)N[C@H]1CC(=O)NCCCC[C@@H](C(N)=O)NC(=O)[C@H](Cc2c[nH]c3ccccc23)NC(=O)[C@H](CCCNC(=N)N)NC(=O)[C@@H](Cc2ccccc2)NC(=O)[C@H](Cc2c[nH]cn2)NC1=O [lead-203 labelled]	C57 mouse, spleen	intravenous, 0.056 MBq, 2 h	0.08 ± 0.09
CCCC[C@H](NC(=O)CNC(=O)CNC(=O)CN1CCN(CC(=O)O)CCN(CC(=O)O)CCN(CC(=O)O)CC1)C(=O)N[C@H]1CC(=O)NCCCC[C@@H](C(N)=O)NC(=O)[C@H](Cc2c[nH]c3ccccc23)NC(=O)[C@H](CCCNC(=N)N)NC(=O)[C@@H](Cc2ccccc2)NC(=O)[C@H](Cc2c[nH]cn2)NC1=O [copper-64 labelled]	female C57 mouse, B16/F1 melanoma, lung	intravenous, 0.037 MBq, 24 h	4.45 ± 0.51
O=C([O-])CN1CCN(CC(=O)[O-])CCN(CC(=O)NCCc2ccc3c(c2)C2C=CCC2C(c2cc4c(cc2Br)OCO4)N3)CCN(CC(=O)[O-])CC1.[111In+3] (centres unmarked)	mouse, Hec50 endometrial tumour, adrenals	1 h post injection	5.02 ± 0.86
CC(C)[C@H](NC(=O)[C@@H]1CCCN1C(=O)[C@H](CCCNC(=N)N)NC(=O)[C@H](CS)NC(=O)[C@H](Cc1c[nH]c2ccccc12)NC(=O)[C@H](CCCNC(=N)N)NC(=O)[C@@H](Cc1ccccc1)NC(=O)[C@H](Cc1c[nH]cn1)NC(=O)[C@H](CCC(=O)O)NC(=O)[C@H](CS)NC(=O)[C@H](CS)NC(=O)CNC(=O)[C@@H]1CC(=O)N[C@@H](CCCNC(=N)N)C(=O)NCC(=O)N[C@@H](CC(=O)O)C(=O)N[C@H](Cc2ccc(O)cc2)C(=O)N1)C(N)=O [technetium-99m labelled]	C57 mouse, female, B16/F1 melanoma, muscle	intravenous, 0.037 MBq, 24 h	0.3 ± 0.08
CN(C)c1ccc(-c2nc3ccc(OCCCCCN4CCN5CCN(CC4)CC(=O)[O][Al]([18F])[O]C(=O)C5)cc3s2)cc1	ICR mouse, brain	intravenous, 60 min	0.09 ± 0.05
CN1C(=O)[C@@H](Cc2ccc(O)c(I)c2)NC(=O)CNC(=O)[C@H](Cc2ccc3ccccc3c2)NC(=O)[C@H](CCCNC(=N)N)NC(=O)[C@H]1CCCNC(=O)c1ccc(CNC(=O)CN2CCN(CC(=O)O)CCN(CC(=O)O)CCN(CC(=O)O)CC2)cc1 [lutetium-177 labelled]	female CB-17 SCID mouse, Daudi xenograft, tumor	intravenous, 6 h, CXCR4 blocking, with: AMD3100 2 mg/kg coinjected	0.43 ± 0.02
CCCC[C@H](NC(=O)CNC(=O)CNC(=O)CN1CCN(CC(=O)O)CCN(CC(=O)O)CC1)C(=O)N[C@H]1CC(=O)NCCCC[C@@H](C(N)=O)NC(=O)[C@H](Cc2c[nH]c3ccccc23)NC(=O)[C@H](CCCNC(=N)N)NC(=O)[C@@H](Cc2ccccc2)NC(=O)[C@H](Cc2c[nH]cn2)NC1=O [copper-64 labelled]	female C57 mouse, B16/F1 melanoma, tumor	intravenous, 0.037 MBq, 0.5 h	12.5 ± 0.44
CC(C)[C@H](NC(=O)[C@@H]1CCCN1C(=O)[C@H](CCCNC(=N)N)NC(=O)[C@H](CS)NC(=O)[C@H](Cc1c[nH]c2ccccc12)NC(=O)[C@H](CCCNC(=N)N)NC(=O)[C@@H](Cc1ccccc1)NC(=O)[C@H](Cc1c[nH]cn1)NC(=O)[C@H](CCC(=O)O)NC(=O)[C@H](CS)NC(=O)[C@H](CS)NC(=O)[C@@H]1CC(=O)N[C@@H](CCCNC(=N)N)C(=O)NCC(=O)N[C@@H](CC(=O)O)C(=O)N[C@H](Cc2ccc(O)cc2)C(=O)N1)C(N)=O [technetium-99m labelled]	C57 mouse, female, B16/F1 melanoma, liver	intravenous, 0.037 MBq, 4 h	1.55 ± 0.25

Repeated from above:
SMILES	system	setting	tissue uptake [%ID/g]
O=C([O-])CN1CCN(CC(=O)[O-])CCN(CC(=O)NCCc2ccc3c(c2)C2C=CCC2C(c2cc4c(cc2Br)OCO4)N3)CCN(CC(=O)[O-])CC1.[111In+3] (centres unmarked)	mouse, Hec50 endometrial tumour, adrenals	1 h post injection	5.02 ± 0.86
